Results pooled from the literature.
Each line is one published result; not all experiments were run side by side. ± gives the spread as reported. ≈ marks a conversion by molar mass, not a printed value.

| Substance | tested on | test | test system | setting | how to read | quantity | result |
| --- | --- | --- | --- | --- | --- | --- | --- |
| COC(=O)CNC(=O)/C=C\C/C=C\NC(=O)/C=C(C)/C=C/[C@H](C)[C@H](OC)[C@H](C)[C@H](/C=C/c1ccccc1)OC | Zymoseptoria tritici | disease control, glasshouse foliar spray | Triticum aestivum | disease control 100% | – | lowest effective concentration | > 180 µM |
| C=CC1=C(C)/C(=C/c2[nH]c(Cc3[nH]c(/C=C4\NC(=O)C(C)=C4C=C)c(C)c3CCC(=O)O)c(CCC(=O)O)c2C)NC1=O | hepatitis C virus | viral replication, RT-PCR | Huh7.5 full-length Con1 replicon | 48 h | – | lowest effective concentration | 200 µM |
| CCCCCCCCCCCCCCCCCC(=O)N/N=C/c1ccccc1Cl | Aspergillus niger | microbial growth, broth dilution | – | 7 days | – | MIC | 51.3 µM (≈ 21.6 µg/mL) |
| Cc1cc(CCCOc2c(C)cc(-c3noc(C(F)(F)F)n3)cc2C)on1 | Enterovirus D68 | – | RD, US/KY/14-18953 | 72 h | – | EC90 | 0.21 ± 0.05 µM |
| O=C1CCc2ccc(OCCCCN3CCN(c4cccc(Cl)c4Cl)CC3)cc2N1 | coronavirus spike pseudovirus | luciferase reporter | ACE2-high cells | 20 µM, unit not given | relative to: untreated | pseudovirus entry | 0.18 ± 0.01 |
| CC(=O)OCC(CCn1cnc2cnc(N)nc21)COC(C)=O | Aedes aegypti | – | – | third instar larvae | – | LC50 | 240 µg/mL (≈ 747 µM) |
| N=C(N)c1ccc(-c2ccc(-c3ccco3)o2)c(F)c1 | Salmonella enterica | sodium azide mutagenicity | TA1535 | 10 µM, 48 h, together with: sodium azide 2 µg/plate co-exposure | – | inhibition | 59% |
| tannic acid | viral haemorrhagic septicaemia virus | – | zebrafish | in feed, 200 µg/fish/day, feed 10% for 10 days | – | cumulative mortality | 39.2 ± 1% |
| LSTFFRLFNRSFTQGRRRRSVQWCA | Streptococcus mutans | OD600 | peptide, UA159, 4 h single-species biofilm | 128 µg/ml, 5 min exposure, OD600 read over 5 h | – | biofilm growth | decreased |
| C[C@H](Cn1cnc2c(N)ncnc21)OCP(=O)(O)O | human alphaherpesvirus 2 | virus production, plaque reduction | human monocytes/macrophages | 1 µg/mL, 6 days | – | inhibition | 27% |
| CCCCCCCCCCCCCCCCCC(=O)N/N=C/c1ccccc1 | Staphylococcus aureus, Bacillus subtilis, Escherichia coli | bacterial growth | – | 24 h | – | MIC | 25.7 µM (≈ 9.94 µg/mL) |
| CCc1c(C)nc(-n2nc(C)cc2NC(=O)c2ccccc2SC)[nH]c1=O | Leishmania amazonensis | – | intracellular amastigotes | 72 h, washout | – | LD50 | 650 ± 200 nM |
| COc1cc2nc(N3CCCN(C)CC3)nc(NC3CCN(Cc4ccccc4)CC3)c2cc1OC | human respiratory syncytial virus | – | BEAS-2B, A2-L19F-renilla | concentration not given | – | antiviral activity | inactive |
| O=C(O)C(=O)CBr | Leishmania infantum | – | U-937 macrophages, infected | 273 µM, 48 h, highest non-cytotoxic concentration | – | decrease of intracellular amastigotes | 18.6% |
| N#Cc1ccc(-c2ccc(-c3ccco3)o2)cc1F | Salmonella enterica | – | TA1535 | 20 µM, 48 h, together with: sodium azide co-exposure | relative to: sodium azide alone | mutant frequency | 24% |
| CSc1ccc2c(c1)N(CCC1CCCCN1C)c1ccccc1S2 (stereo not drawn) | coronavirus spike pseudovirus | luciferase reporter | ACE2-high cells | 20 µM, unit not given | relative to: untreated | pseudovirus entry | 0.39 ± 0.08 |
| CCCCCCCCCCCCCCCC(=O)N/N=C/c1ccccc1Cl | Aspergillus niger | microbial growth, broth dilution | – | 7 days | – | MIC | 53.7 µM (≈ 21.1 µg/mL) |
| Nc1ccn([C@@H]2CS[C@H](CO)O2)c(=O)n1 | hepatitis B virus | viral replication | HepG2.2.15 | – | – | EC90 | 0.14 ± 0.011 µM |
| COc1cc(C(=O)NS(=O)(=O)c2ccccc2C)ccc1Cc1cn(C)c2ccc(NC(=O)OC3CCCC3)cc12 | dengue virus type 2 New Guinea C | viral yield | – | single-cycle yield reduction | – | IC90 | 7 ± 2.8 µM |
| COc1cc(OC)cc(C(=O)N/N=C/c2ccccc2)c1 | Aspergillus niger | tube dilution | – | 7 days, 25 °C | – | MIC | < 25.1 µM |
| c1ccc(CN2CCCNCCN(Cc3ccccc3)CCCNCC2)cc1 | Leishmania donovani | parasite growth, resazurin | – | 72 h, promastigote | – | IC90 | 17.8 µM |
| CCCCCCCCCCCC(=O)N/N=C/c1ccccc1Cl | Staphylococcus aureus, Bacillus subtilis, Escherichia coli | bacterial growth | – | 24 h | – | MIC | 28.2 µM (≈ 9.5 µg/mL) |
| N=C(N)c1ccc(OCCCCCOc2ccc(C(=N)N)cc2)cc1 | Trypanosoma brucei rhodesiense | – | STIB900, mouse | intraperitoneal, 5 mg/kg, 1440 h | – | responders | 50% |

| Substance | tested on | test | test system | setting | how to read | quantity | result |
| --- | --- | --- | --- | --- | --- | --- | --- |
| CP(=O)(O)CCC(N)C(=O)O (stereo not drawn) | Eleusine indica | – | – | 60 g/ha, 13 days, ELEIN, post-emergence spray | relative to: untreated (0%), complete kill (100%) | herbicidal activity | 80% |
| O=Cc1cn(Cc2ccccc2)c2ccc([N+](=O)[O-])cc12 | Trypanosoma congolense | – | trypomastigotes, IL3000 | – | – | IC50 | > 89 µM |
| CS(=O)(=O)CC(=O)N1CC2(C1)OCc1cc(C3=NO[C@@](c4cc(Cl)c(F)c(Cl)c4)(C(F)(F)F)C3)ccc12 | Ixodes scapularis | – | dog | oral, 2 mg/kg, day 29, dosed 21 days pre-infestation | relative to: placebo | reduction in live tick counts | 86.3% |
| COc1ccc(-c2[nH]c3nc(N)[nH]c(=O)c3c2C#N)cc1 | Trypanosoma brucei brucei | Alamar blue | Lister 427 bloodstream form | concentration not given, 10% fetal calf serum | – | ED50 | 274 ± 7.5 µM |
| N#Cc1ccc(-c2ccc(-c3cccs3)o2)c(F)c1 | Salmonella enterica | sodium azide mutagenicity | TA1535 | 10 µM, 48 h, together with: sodium azide 2 µg/plate after pre-exposure | – | inhibition | 80% |
| CN[C@@](C)(C[18F])C(=O)O | A549 tumour model | – | host not given, muscle | 2 h, tumour-bearing | – | tracer uptake | 1.6 %ID/g |
| O=C(O)CNCP(=O)(O)O | Achromobacter sp. | – | MPS 12 A | 3 mM | – | degradation rate per cell | -1.4e-21 mol/s/cell |
| COc1cc(C=NN2C(S)=NCN2/C=C/c2ccccc2)ccc1O | Aedes aegypti | – | – | third instar larvae | – | LC50 | 110 µg/mL (≈ 310 µM) |
| N#Cc1ccc(-c2ccc(-c3cccs3)s2)cc1F | Salmonella enterica | – | TA1535 | 20 µM, 48 h, together with: sodium azide after pre-exposure | relative to: sodium azide alone | mutant frequency | 16% |
| CN1CCN2CCN(CC1)CCN(Cc1ccccc1)CC2 | Leishmania donovani | parasite growth, resazurin | – | 72 h, amastigote | – | IC90 | > 20 µM |
| C=C1[C@H](CO)[C@@H](O)C[C@@H]1n1cnc2c(=O)[nH]c(N)nc21 | hepatitis B virus | viral replication | HepG2.2.15 | – | – | EC90 | 0.03 ± 0.002 µM |
| N#Cc1ccc(-c2ccc(-c3ccco3)o2)c(F)c1 | Salmonella enterica | sodium azide mutagenicity | TA1535 | 10 µM, 48 h, together with: sodium azide 2 µg/plate co-exposure | – | inhibition | 58% |
| C/C(=C\Cc1c(O)c(Cl)c(C)c(C=O)c1O)CC/C=C(\C)[C@@H]1CC(=O)C(C)(C)O1 | Wickerhamomyces anomalus | O2 uptake, inhibitor | mitochondria | together with: NADH 1 mM | – | IC50 | 68.5 µM |
| C/C=C/C=C/C(=O)N/N=C/c1ccccc1 | Staphylococcus aureus, Bacillus subtilis, Escherichia coli | bacterial growth | – | 24 h | – | MIC | 58.9 µM (≈ 12.6 µg/mL) |
| CN1CCCN2CCN(CCCN(Cc3ccccc3)CC2)CC1 | Leishmania donovani | parasite growth, resazurin | – | 72 h, promastigote | – | IC90 | > 20 µM |
| O=Cc1cn(Cc2ccc(F)cc2)c2ccc([N+](=O)[O-])cc12 | Trypanosoma brucei rhodesiense | – | trypomastigotes, IL1501 | – | – | IC50 | 83.8 ± 2.62 µM |
| C[C@H]1N[C@@H](CCCCCCCCCCC2=C[C@@H](CCCCCCCCCC[C@H]3CC[C@@H](O)[C@@H](C)N3)[C@@H]3CCCN3C2)CC[C@H]1O | Leishmania donovani | parasite growth | THP-1 | intracellular, amastigote | – | IC90 | 1.34 µg/mL |
| CCN(CC)CCCC(C)Nc1ccnc2cc(Cl)ccc12 (stereo not drawn) | Plasmodium yoelii | – | Kenya MRA-428, mouse | oral | – | ED50 | 2.2 mg/kg/day |
| N=C(N)c1ccc(-c2ccc(-c3cccs3)o2)c(F)c1 | Salmonella enterica | sodium azide mutagenicity | TA1535 | 20 µM, 48 h, together with: sodium azide 2 µg/plate co-exposure | – | inhibition | 105% |
| CCCC[C@H]1C(=O)O[C@H](C)[C@H](NC(=O)c2cccc(NC=O)c2O)C(=O)O[C@@H](C)[C@@H]1OC(=O)CC(C)C | Wickerhamomyces anomalus | O2 uptake, inhibitor | mitochondria | together with: succinate 15 mM | – | IC50 | 0.02 µM |
| Cc1ccc(C(=O)N/N=C/c2ccccc2Cl)cc1 | Aspergillus niger | tube dilution | – | 7 days, 25 °C | – | MIC | < 25.1 µM |
| N=C(N)c1ccc(-c2ccc(-c3cccs3)o2)cc1F | Salmonella enterica | – | TA1535 | 10 µM, 48 h, together with: sodium azide after pre-exposure | relative to: sodium azide alone | mutant frequency | 43% |

A few entries again:
| Substance | tested on | test | test system | setting | how to read | quantity | result |
| --- | --- | --- | --- | --- | --- | --- | --- |
| CSc1ccc2c(c1)N(CCC1CCCCN1C)c1ccccc1S2 (stereo not drawn) | coronavirus spike pseudovirus | luciferase reporter | ACE2-high cells | 20 µM, unit not given | relative to: untreated | pseudovirus entry | 0.39 ± 0.08 |
| CN1CCN2CCN(CC1)CCN(Cc1ccccc1)CC2 | Leishmania donovani | parasite growth, resazurin | – | 72 h, amastigote | – | IC90 | > 20 µM |
| C[C@H]1N[C@@H](CCCCCCCCCCC2=C[C@@H](CCCCCCCCCC[C@H]3CC[C@@H](O)[C@@H](C)N3)[C@@H]3CCCN3C2)CC[C@H]1O | Leishmania donovani | parasite growth | THP-1 | intracellular, amastigote | – | IC90 | 1.34 µg/mL |
| C=C1[C@H](CO)[C@@H](O)C[C@@H]1n1cnc2c(=O)[nH]c(N)nc21 | hepatitis B virus | viral replication | HepG2.2.15 | – | – | EC90 | 0.03 ± 0.002 µM |
| COc1cc(C(=O)NS(=O)(=O)c2ccccc2C)ccc1Cc1cn(C)c2ccc(NC(=O)OC3CCCC3)cc12 | dengue virus type 2 New Guinea C | viral yield | – | single-cycle yield reduction | – | IC90 | 7 ± 2.8 µM |
| O=C1CCc2ccc(OCCCCN3CCN(c4cccc(Cl)c4Cl)CC3)cc2N1 | coronavirus spike pseudovirus | luciferase reporter | ACE2-high cells | 20 µM, unit not given | relative to: untreated | pseudovirus entry | 0.18 ± 0.01 |
